Measurements from different studies.
Parts stem from different laboratories: compare values within a part only.
Chain of UniProt P07333 (whole entry, looked up): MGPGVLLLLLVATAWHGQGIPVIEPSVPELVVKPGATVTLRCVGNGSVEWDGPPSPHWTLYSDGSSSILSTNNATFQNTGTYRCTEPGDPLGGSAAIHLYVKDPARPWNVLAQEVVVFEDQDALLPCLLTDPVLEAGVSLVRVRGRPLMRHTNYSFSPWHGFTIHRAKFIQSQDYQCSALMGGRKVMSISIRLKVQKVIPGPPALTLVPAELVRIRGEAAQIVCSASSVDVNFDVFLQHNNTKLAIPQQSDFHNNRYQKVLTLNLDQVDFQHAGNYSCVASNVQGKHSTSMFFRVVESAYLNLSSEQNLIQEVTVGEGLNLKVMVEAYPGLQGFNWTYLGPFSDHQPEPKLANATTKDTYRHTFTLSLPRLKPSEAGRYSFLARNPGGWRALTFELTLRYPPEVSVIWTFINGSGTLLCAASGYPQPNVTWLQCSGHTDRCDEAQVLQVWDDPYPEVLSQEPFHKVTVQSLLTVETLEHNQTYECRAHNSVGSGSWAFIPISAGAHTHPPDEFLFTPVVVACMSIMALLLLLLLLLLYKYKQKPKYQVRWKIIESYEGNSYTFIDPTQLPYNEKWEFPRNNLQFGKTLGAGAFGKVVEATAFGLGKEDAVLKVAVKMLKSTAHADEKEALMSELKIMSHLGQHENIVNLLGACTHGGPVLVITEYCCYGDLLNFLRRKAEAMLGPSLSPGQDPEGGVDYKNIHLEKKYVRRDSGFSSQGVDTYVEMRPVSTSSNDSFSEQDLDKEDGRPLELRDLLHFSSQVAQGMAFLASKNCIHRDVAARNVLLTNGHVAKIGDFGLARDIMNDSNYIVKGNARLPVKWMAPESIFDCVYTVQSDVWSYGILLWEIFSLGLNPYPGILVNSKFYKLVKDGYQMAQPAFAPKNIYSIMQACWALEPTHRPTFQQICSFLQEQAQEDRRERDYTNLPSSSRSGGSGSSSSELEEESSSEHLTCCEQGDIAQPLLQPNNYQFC
Chain of UniProt P51955 (whole entry, looked up): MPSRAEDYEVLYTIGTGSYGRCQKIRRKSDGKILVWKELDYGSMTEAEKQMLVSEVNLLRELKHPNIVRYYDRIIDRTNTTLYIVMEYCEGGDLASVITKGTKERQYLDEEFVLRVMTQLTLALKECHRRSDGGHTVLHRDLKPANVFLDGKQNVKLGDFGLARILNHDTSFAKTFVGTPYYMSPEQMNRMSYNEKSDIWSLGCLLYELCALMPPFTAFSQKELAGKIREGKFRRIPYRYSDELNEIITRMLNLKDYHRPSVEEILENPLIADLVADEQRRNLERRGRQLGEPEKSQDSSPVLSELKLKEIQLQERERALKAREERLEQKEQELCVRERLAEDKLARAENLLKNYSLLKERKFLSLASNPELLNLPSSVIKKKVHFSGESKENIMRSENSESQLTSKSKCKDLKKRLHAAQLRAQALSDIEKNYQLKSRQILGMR
Chain of UniProt Q13131 (whole entry, looked up): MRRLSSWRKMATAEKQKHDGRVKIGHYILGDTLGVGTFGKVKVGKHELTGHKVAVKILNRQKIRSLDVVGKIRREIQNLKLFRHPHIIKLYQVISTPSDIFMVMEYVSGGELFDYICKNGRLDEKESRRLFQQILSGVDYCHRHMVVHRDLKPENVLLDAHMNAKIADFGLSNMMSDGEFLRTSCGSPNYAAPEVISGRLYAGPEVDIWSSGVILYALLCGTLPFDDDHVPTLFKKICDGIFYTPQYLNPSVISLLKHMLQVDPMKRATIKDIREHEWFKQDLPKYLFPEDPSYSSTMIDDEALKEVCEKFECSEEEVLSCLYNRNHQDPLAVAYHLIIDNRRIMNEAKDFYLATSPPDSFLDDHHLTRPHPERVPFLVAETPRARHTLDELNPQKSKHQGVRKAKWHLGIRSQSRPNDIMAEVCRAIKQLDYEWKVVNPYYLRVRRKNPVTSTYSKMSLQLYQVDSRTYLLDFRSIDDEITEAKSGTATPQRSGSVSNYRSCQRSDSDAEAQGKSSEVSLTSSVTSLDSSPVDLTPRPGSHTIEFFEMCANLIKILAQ
Chain of UniProt O75914 (whole entry, looked up): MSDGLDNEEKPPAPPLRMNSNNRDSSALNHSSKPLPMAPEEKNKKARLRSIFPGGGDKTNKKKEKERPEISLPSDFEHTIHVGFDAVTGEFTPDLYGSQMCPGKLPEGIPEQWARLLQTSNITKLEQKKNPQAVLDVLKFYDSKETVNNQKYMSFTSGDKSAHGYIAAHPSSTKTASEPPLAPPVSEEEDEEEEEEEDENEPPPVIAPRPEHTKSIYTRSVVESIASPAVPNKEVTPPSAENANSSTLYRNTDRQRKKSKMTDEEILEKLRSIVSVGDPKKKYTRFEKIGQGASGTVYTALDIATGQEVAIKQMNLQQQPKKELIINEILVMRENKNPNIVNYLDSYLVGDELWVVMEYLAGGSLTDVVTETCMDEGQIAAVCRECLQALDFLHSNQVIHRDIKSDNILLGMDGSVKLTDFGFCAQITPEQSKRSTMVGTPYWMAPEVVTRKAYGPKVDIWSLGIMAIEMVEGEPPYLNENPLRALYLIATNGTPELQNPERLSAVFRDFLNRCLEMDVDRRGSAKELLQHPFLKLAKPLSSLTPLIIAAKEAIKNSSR
Chain of UniProt Q16832 (whole entry, looked up): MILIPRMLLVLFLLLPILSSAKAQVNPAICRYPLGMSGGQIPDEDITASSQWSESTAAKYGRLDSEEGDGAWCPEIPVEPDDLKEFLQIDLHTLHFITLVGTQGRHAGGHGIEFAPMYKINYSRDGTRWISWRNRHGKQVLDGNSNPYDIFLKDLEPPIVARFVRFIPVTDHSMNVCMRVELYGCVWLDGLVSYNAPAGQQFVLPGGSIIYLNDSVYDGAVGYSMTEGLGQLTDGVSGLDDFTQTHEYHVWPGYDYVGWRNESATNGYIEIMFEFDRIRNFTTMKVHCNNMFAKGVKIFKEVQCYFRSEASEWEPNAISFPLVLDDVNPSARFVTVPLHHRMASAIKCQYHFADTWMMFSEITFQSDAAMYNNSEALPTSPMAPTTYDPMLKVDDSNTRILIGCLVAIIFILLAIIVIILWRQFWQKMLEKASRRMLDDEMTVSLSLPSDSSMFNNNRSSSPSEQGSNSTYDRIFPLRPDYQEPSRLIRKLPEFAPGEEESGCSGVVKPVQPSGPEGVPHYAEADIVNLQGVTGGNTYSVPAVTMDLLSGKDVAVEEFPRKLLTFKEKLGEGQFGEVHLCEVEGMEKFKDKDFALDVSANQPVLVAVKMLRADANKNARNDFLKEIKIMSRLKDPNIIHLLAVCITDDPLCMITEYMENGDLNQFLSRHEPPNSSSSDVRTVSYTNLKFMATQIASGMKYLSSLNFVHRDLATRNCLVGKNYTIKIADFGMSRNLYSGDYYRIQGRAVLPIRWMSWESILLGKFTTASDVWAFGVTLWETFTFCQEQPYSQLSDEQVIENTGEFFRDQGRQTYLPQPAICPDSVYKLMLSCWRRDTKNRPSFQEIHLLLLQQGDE
Chain of UniProt Q9H2X6 (whole entry, looked up): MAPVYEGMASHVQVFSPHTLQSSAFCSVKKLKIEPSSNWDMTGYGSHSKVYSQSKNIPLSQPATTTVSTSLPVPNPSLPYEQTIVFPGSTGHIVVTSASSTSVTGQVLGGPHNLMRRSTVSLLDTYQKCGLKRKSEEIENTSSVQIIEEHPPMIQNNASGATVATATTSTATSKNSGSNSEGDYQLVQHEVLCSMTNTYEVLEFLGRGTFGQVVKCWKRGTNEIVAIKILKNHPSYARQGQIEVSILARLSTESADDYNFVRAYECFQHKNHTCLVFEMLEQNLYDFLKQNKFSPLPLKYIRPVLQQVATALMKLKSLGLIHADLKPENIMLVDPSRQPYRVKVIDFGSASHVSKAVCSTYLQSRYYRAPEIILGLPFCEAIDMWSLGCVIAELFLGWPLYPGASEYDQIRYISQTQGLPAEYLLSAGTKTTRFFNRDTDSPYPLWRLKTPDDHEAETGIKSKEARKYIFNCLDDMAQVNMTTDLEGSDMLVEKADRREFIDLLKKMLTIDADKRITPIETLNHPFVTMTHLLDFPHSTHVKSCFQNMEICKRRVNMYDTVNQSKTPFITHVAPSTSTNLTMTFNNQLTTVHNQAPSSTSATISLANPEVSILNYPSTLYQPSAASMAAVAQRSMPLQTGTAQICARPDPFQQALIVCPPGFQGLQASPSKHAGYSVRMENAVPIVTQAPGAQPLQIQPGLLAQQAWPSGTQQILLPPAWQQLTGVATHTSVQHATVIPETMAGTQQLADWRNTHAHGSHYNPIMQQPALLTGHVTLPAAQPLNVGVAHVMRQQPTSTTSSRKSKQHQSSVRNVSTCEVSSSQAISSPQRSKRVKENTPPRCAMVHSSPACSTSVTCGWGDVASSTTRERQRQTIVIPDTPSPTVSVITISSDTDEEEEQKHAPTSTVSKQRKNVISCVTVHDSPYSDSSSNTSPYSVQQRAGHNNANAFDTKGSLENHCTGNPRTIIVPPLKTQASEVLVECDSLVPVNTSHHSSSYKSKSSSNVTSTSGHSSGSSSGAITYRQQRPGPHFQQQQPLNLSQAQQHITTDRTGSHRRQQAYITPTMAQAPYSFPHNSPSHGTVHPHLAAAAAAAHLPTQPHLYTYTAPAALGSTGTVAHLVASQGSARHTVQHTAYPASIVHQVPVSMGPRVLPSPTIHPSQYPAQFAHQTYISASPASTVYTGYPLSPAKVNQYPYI
Chain of UniProt O14733 (whole entry, looked up): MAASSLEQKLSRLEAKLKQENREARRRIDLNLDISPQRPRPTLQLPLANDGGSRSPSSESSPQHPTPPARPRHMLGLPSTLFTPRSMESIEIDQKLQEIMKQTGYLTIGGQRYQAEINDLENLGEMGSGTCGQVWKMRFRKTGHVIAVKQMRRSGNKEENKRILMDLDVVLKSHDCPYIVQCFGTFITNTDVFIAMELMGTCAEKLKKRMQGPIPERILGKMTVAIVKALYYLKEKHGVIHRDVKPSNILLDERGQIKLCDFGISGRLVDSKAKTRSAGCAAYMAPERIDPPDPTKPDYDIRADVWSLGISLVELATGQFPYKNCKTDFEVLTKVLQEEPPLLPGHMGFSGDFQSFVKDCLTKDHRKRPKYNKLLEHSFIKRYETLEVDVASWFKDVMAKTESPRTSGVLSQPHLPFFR

Block 1
SMILES: C1=C/COCc2cc(ccc2OCCN2CCCC2)Nc2nccc(n2)-c2cccc(c2)COC/1
Effect on: binding
Tested at: 0.1 µM
target	remaining binding [%]
Ephrin type-A receptor 5 (EPHA5, Homo sapiens, UniProt P54756)	100
Receptor-type tyrosine-protein kinase FLT3 (FLT3, Homo sapiens, UniProt P36888, D835Y)	8.2
Serine/threonine-protein kinase PAK 3 (PAK3, Homo sapiens, UniProt O75914)	100
Discoidin domain-containing receptor 2 (DDR2, Homo sapiens, UniProt Q16832)	56
Homeodomain-interacting protein kinase 2 (HIPK2, Homo sapiens, UniProt Q9H2X6)	2.2
Macrophage colony-stimulating factor 1 receptor (CSF1R, Homo sapiens, UniProt P07333)	70

Block 2
Structure (SMILES): CCCCC(=O)Nc1ccc(-c2ccc3ncn(CCC)c(=O)c3c2)cn1
Effect on: binding
Method: competition with immobilised ligand
Tested at: 0.5 µM
target	remaining binding
Serine/threonine-protein kinase Nek2 (NEK2, Homo sapiens, UniProt P51955)	100%
Ephrin type-A receptor 4 (EPHA4, Homo sapiens, UniProt P54764)	100%
Dual specificity mitogen-activated protein kinase kinase 7 (MAP2K7, Homo sapiens, UniProt O14733)	100%
Protein kinase C delta type (PRKCD, Homo sapiens, UniProt Q05655)	100%
Calcium/calmodulin-dependent protein kinase type IV (CAMK4, Homo sapiens, UniProt Q16566)	90%
Ephrin type-B receptor 3 (EPHB3, Homo sapiens, UniProt P54753)	100%
cGMP-dependent protein kinase 2 (PRKG2, Homo sapiens, UniProt Q13237)	100%
G protein-coupled receptor kinase 3 (GRK3, Homo sapiens, UniProt P35626)	100%

Other studies, line by line
Tested at: 1 µM
MTOR: Serine/threonine-protein kinase mTOR (MTOR, Homo sapiens, UniProt P42345)
Structure (SMILES)	target	effect on	mode	method	measurement	result
COc1cc(-c2cncc3c2CN(C)Cc2cc(N4CCNCC4)ccc2-3)cc(OC)c1OC	MTOR	enzyme activity	inhibitor		remaining activity	102%
CNc1ncc2c(/C=C/C(=O)N3CCC(OC)CC3)nn(Cc3cccc(C(F)(F)F)c3)c2n1	MTOR	enzyme activity	inhibitor	radiometric	remaining activity	96%
Cc1cc([C@@H](C)Nc2ccccc2C(=O)O)c2nc(N3CCC(F)(F)CC3)c(C#N)c(=O)n2c1	3-phosphoinositide-dependent protein kinase 1 (PDPK1, Homo sapiens, UniProt O15530)	binding		competition with immobilised ligand	remaining binding	100%
C=CC(=O)N1CCC(COCC(=O)N2CCN(c3nc(-c4cnc(N)nc4C(F)F)nc(N4CCOC[C@@H]4C)n3)CC2)CC1	5'-AMP-activated protein kinase catalytic subunit alpha-1 (PRKAA1, Homo sapiens, UniProt Q13131)	binding		competition with immobilised ligand	remaining binding	100%

Some of these lines once more (block 1):
target	remaining binding [%]
Homeodomain-interacting protein kinase 2 (HIPK2, Homo sapiens, UniProt Q9H2X6)	2.2
Macrophage colony-stimulating factor 1 receptor (CSF1R, Homo sapiens, UniProt P07333)	70
